Experimental data pooled from the literature.
Each line is one published result; not all experiments were run side by side. Values joined by “and” are separate records of one study, mostly repeats; a detail may differ. Numbers after ± are the reported error.
Grin1 with GluN2D: Glutamate receptor ionotropic, NMDA 1, with GluN2D (Grin1, Rattus norvegicus, UniProt P35439)
ALB: Albumin (ALB, Homo sapiens, UniProt P02768)
uncharacterized protein: uncharacterized protein (Spodoptera exigua, UniProt F1CEY0)
GUK1: GUK1 (Homo sapiens, UniProt Q16774)
UniProt Q16774, sequence (whole entry, looked up): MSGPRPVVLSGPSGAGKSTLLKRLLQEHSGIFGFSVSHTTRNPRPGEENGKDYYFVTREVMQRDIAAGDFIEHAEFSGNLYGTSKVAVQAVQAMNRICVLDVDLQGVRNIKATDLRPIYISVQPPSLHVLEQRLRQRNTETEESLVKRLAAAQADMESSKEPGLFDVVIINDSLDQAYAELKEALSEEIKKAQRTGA
KRAS G12D GDP-bound: GTPase KRas, GDP-bound (KRAS, Homo sapiens, UniProt P01116, G12D)
T1: ssDNA, aptamer; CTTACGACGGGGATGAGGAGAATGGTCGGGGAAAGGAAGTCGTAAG
UniProt O76090, sequence (whole entry, unmodified, looked up): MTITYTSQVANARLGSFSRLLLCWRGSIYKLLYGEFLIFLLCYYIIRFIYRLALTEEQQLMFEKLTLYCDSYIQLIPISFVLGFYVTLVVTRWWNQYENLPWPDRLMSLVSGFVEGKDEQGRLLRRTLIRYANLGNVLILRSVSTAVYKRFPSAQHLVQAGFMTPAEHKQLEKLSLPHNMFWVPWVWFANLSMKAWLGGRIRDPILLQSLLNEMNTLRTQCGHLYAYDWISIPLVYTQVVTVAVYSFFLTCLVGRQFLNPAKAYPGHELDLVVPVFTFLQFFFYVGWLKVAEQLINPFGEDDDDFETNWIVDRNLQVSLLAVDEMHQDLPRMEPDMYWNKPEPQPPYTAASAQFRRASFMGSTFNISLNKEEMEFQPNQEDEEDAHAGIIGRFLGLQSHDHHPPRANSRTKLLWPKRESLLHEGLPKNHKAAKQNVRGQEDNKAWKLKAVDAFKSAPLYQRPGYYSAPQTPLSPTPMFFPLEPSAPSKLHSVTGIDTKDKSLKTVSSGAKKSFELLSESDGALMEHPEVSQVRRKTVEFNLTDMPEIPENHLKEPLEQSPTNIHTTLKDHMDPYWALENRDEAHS
UniProt P51575, sequence (whole entry, unmodified, looked up): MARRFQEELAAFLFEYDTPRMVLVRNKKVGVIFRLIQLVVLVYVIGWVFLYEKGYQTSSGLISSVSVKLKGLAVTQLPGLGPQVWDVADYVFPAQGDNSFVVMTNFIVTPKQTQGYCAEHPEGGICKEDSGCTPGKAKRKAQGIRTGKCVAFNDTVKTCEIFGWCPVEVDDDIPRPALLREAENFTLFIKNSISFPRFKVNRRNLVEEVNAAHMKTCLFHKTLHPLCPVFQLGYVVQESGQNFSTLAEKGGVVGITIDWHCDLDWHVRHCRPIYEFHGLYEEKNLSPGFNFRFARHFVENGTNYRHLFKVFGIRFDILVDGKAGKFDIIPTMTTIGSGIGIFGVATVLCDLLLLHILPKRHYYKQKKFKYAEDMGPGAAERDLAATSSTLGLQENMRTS
UniProt P00441, sequence (whole entry, unmodified, looked up): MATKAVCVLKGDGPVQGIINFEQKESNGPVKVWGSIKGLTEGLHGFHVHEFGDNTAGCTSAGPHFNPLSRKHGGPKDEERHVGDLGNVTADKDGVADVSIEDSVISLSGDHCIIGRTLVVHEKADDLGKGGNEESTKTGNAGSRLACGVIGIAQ
UniProt P11388, sequence (whole entry, looked up): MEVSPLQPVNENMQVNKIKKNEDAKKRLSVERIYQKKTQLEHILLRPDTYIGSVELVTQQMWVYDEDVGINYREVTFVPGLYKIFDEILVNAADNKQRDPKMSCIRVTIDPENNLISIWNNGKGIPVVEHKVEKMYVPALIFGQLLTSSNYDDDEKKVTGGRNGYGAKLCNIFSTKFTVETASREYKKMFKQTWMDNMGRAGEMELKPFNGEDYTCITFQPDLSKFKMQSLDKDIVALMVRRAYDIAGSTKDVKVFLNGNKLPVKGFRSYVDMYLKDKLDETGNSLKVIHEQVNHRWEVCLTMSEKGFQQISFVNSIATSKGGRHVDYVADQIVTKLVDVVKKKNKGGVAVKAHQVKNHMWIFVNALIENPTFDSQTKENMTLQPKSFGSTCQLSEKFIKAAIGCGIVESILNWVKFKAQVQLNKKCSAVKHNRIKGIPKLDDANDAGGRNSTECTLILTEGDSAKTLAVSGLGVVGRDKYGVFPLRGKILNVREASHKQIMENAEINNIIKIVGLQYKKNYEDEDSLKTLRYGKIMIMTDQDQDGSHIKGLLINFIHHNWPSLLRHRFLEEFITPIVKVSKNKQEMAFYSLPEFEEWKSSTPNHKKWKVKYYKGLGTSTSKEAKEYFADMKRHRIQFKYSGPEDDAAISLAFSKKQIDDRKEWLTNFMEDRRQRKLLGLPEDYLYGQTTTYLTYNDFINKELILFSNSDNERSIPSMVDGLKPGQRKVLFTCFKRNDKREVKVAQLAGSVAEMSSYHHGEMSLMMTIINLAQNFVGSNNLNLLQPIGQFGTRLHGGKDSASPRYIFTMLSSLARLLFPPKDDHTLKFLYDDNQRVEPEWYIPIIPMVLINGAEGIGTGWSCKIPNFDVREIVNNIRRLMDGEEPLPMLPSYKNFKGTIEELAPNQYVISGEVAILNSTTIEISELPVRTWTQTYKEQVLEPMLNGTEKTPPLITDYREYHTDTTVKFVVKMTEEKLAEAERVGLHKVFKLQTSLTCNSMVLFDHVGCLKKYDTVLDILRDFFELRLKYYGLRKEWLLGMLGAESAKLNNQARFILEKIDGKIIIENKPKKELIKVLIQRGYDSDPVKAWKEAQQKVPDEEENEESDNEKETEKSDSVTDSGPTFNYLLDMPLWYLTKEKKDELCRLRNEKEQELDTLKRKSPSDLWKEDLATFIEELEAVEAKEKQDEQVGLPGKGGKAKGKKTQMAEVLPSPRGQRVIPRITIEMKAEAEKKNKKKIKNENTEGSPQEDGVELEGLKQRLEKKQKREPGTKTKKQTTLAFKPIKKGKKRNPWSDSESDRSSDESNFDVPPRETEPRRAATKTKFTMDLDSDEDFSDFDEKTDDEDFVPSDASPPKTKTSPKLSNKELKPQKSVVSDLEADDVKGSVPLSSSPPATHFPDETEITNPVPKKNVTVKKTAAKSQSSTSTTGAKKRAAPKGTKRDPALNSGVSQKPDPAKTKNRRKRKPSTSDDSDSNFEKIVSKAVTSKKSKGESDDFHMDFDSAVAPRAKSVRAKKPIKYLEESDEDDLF
UniProt P02749, sequence (whole entry, unmodified, looked up): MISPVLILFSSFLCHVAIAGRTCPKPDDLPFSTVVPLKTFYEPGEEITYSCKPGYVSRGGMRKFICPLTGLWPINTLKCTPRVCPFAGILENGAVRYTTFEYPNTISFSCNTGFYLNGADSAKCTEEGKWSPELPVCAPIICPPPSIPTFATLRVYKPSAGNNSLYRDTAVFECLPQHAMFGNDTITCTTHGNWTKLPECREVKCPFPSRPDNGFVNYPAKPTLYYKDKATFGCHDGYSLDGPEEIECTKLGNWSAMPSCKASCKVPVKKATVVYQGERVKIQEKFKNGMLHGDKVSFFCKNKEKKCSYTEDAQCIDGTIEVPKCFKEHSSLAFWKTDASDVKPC
UniProt P49674, sequence (whole entry, looked up): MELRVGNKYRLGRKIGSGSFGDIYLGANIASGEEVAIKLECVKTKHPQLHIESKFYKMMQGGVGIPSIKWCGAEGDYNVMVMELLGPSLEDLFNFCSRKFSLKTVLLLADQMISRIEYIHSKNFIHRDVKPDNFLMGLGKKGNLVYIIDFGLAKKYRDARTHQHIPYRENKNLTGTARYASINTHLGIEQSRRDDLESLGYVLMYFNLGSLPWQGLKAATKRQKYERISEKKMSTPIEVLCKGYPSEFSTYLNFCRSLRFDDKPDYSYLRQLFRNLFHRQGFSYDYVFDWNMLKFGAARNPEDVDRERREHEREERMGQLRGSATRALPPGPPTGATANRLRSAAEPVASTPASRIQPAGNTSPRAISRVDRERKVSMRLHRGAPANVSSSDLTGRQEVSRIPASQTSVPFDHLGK
UniProt P31941, sequence (whole entry, looked up): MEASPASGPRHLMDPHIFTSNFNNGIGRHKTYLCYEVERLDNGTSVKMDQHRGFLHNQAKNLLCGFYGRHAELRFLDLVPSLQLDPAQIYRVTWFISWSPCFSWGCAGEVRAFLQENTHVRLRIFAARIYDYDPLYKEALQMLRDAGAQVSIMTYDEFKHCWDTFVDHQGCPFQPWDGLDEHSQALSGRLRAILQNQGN
UniProt P41145, sequence (whole entry, looked up): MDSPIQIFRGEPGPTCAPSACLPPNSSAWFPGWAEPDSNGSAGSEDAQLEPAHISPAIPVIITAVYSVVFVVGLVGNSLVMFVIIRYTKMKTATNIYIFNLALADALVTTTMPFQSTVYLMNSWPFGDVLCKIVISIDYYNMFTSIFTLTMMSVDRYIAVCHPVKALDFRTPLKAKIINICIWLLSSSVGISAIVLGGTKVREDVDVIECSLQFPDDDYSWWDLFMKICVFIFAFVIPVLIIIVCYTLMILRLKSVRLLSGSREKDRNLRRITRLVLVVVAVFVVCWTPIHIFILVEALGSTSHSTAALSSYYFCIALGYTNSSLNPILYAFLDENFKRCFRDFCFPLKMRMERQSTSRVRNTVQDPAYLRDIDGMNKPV

SMILES | target | test | test system | conditions | how to read | quantity | result
CO[C@H]1O[C@H](COS(=O)(=O)O)[C@@H](O[C@@H]2O[C@@H](C(=O)O)[C@@H](O[C@H]3O[C@H](COS(=O)(=O)O)[C@@H](O[C@@H]4O[C@H](C(=O)O)[C@@H](O[C@H]5O[C@H](COS(=O)(=O)O)[C@@H](O)[C@H](O)[C@H]5NS(=O)(=O)O)[C@H](O)[C@H]4O)[C@H](OS(=O)(=O)O)[C@H]3NS(=O)(=O)O)[C@H](O)[C@H]2OS(=O)(=O)O)[C@H](O)[C@H]1NS(=O)(=O)O | Beta-2-glycoprotein 1, domain V (APOH, Homo sapiens, UniProt P02749, V266L) | isothermal titration calorimetry |  | concentration not given, 298 K, added: 50 mM NaCl |  | binding stoichiometry | 0.93 ± 0.01
N[C@H](CNC(=O)c1ccc(-c2cccc3ccccc23)s1)C(=O)O | Grin1 with GluN2D |  |  | added: glutamate 300 µM |  | Hill slope | 1.4
COc1cc(/C=C/c2ccc(O)cc2)cc(OC)c1 | O-methyltransferase (Sorghum bicolor, UniProt A0A1B6PFV1) | ITC |  | concentration not given, one set of sites, added: SFG |  | binding stoichiometry | 0.45
C#Cc1c(F)ccc2cc(O)cc(-c3ncc4c(N5CC6CCC(C5)N6)nc(OC[C@@]56CCCN5C[C@H](F)C6)nc4c3F)c12 | GTPase KRas, GDP-bound (KRAS, Homo sapiens, UniProt P01116, Q61H) | SPR |  |  |  | dissociation rate constant koff | 0.000683 ± 0.00014 s⁻¹
C=CC(=O)N1CCC(COCC(=O)N2CCN(c3nc(-c4cnc(N)nc4C(F)F)nc(N4CCOC[C@@H]4C)n3)CC2)CC1 | WEE2 (Homo sapiens, UniProt P0C1S8) | KINOMEscan |  | 1 µM |  | remaining binding | 97%
COc1cc(-c2[o+]c3cc(O)cc(O)c3cc2O[C@@H]2O[C@H](CO)[C@@H](O)[C@H](O)[C@H]2O)ccc1O | ALB | van't Hoff analysis |  | concentration not given |  | binding entropy change | 0 kJ/(mol·K)
Oc1cccccc1=S | CA2 (Homo sapiens, UniProt P00918, L197G) | p-nitrophenyl acetate hydrolysis |  |  | reference: wild type over L198G mutant | Ki ratio | 1.6 fold
Nc1ncnc2c1ncn2[C@@H]1O[C@H](COP(=O)(O)OP(=O)(O)OP(=O)(O)O)[C@@H](O)[C@H]1O | T1, ssDNA, aptamer | ITC |  |  |  | Kd | 0.7 µM
COc1ccc(F)cc1C(=O)NCc1ccc(-c2nn([C@@H](C)C(F)(F)F)c(N)c2C(N)=O)cc1 | CSNK1E (Homo sapiens, UniProt P49674) | kinase activity, inhibitor, HotSpot radiometric |  | 100 nM, added: ATP 10 µM |  | remaining activity | 85.7 ± 0.6%
Cc1occc(=O)c1[O-].[Cl-].[W+4].c1cc[cH-]c1.c1cc[cH-]c1 | ALB | binding, van't Hoff fluorescence quenching |  | concentration not given |  | enthalpy change | 2.01 kcal/mol
N[C@H](CNC(=O)c1ccc(-c2ccccc2Br)s1)C(=O)O | Glutamate receptor ionotropic, NMDA 1, with GluN2C (Grin1, Rattus norvegicus, UniProt P35439, S688A) |  | rat | added: glutamate 300 µM |  | Hill slope | 1.54
NC/C(=C\F)COc1cccc(Cn2c(=S)[nH]c(=O)c3[nH]cnc32)c1 | Grin1 (Rattus norvegicus, UniProt P35439) | radioligand binding, item: glycine site binding |  | 10 µM |  | inhibition | < 50%
CC[C@@H]1[C@H](F)C(=O)N[C@@H]1COc1nccc2cc(C(N)=O)c(OC)cc12 | EPHA2 (Homo sapiens, UniProt P29317) | ATP probe binding, KiNativ profiling, item: activation loop probe site | THP-1 cell lysate | 0.01 mM |  | inhibition | -12.3%
CC(=C/C(=O)O)/C=C/C=C(\C)C1C=C2C(C)(C)CCCC2(C)O1 (centres unmarked) | Rhodopsin (RHO, Homo sapiens, UniProt P08100, T17M) | ER retention, immunostaining co-localization, item: opsin with calnexin | COS-7 transfected T17M | 0.10 µM |  | Pearson correlation coefficient | 0.71
CCC/C=C/C=O | uncharacterized protein | binding, 1-NPN competitive displacement |  | protein 2.0 µM, added: 1-NPN 20 µM | reference: 1-NPN without compound, lower = stronger binding | relative fluorescence | 67.8%
CC1(F)CN(C(=O)Cn2c(=O)c(C(=O)NCc3ccc(Cl)cc3)cc3nc(N4CCCC4=O)cnc32)C1 | DNA polymerase catalytic subunit (Human cytomegalovirus, UniProt P08546) | enzyme activity, inhibitor |  |  |  | Hill slope | 0.93
Nc1ccc(C(=O)O)cc1 | BEST1, with wild-type BEST1 (Homo sapiens, UniProt O76090, A243T) | whole-cell patch clamp | HEK293 co-expressing WT and A243T mutant | concentration not given, membrane potential -100 mV |  | current density | -30.3 pA/pF and -25.9 pA/pF and -8.37 pA/pF and -26.1 pA/pF and -3.92 pA/pF and -32.1 pA/pF and -21.4 pA/pF
CCCCCCCCCCCCCCCCCC | uncharacterized protein | binding, competitor, fluorescence displacement |  | 20 µM, pH 7.4, added: 1-NPN 20 µM | reference: 1-NPN alone | relative fluorescence | 83.3%
CN(C)C(=O)C(CCN1CCC(O)(c2ccc(Cl)cc2)CC1)(c1ccccc1)c1ccccc1 | Calcium-activated potassium channel subunit alpha-1, with LRRC26 γ1 subunit (KCNMA1, Homo sapiens, UniProt Q12791) | BK current, inhibitor, inside-out patch clamp | excised membrane patch | 10 µM, γ1 subunit coexpressed, added: nominally 0 Ca2+ cytosolic | reference: without loperamide | normalized Gmax | 0.234
[O-][S+]1CCCCS1 (centres unmarked) | SOD1 (Homo sapiens, UniProt P00441, G94A) | intact protein LC-MS | SOD1 G93A transgenic mice, whole blood | intravenous, 10 mg/kg, 4 h |  | target engagement | 53.1% and 53%
CCCCCCCCCOC(C)=O | uncharacterized protein | binding, competitor, fluorescence displacement |  | 20 µM, pH 7.4, added: 1-NPN 20 µM | reference: 1-NPN alone | relative fluorescence | 42.8%
Nc1nc2c(ncn2[C@@H]2O[C@H](COP(=O)(O)O)[C@@H](O)[C@H]2O)c(=O)[nH]1 | GUK1 | enzyme activity, NADH-coupled |  | 125 µM, added: KCl 150 mM |  | reaction velocity | 0.0807 µM/s and 0.0809 µM/s and 0.0475 µM/s

SMILES | target | test | test system | conditions | how to read | quantity | result
C1CCCC1.C1CCCC1.[Cl][W][Cl] | ALB | fluorescence quenching |  | 317 K |  | Stern-Volmer quenching constant | 5100 L/mol
Nc1ncnc2c1ncn2[C@@H]1O[C@H](COP(=O)(O)CP(=O)(O)OP(=O)(O)O)[C@@H](O)[C@H]1O | P2X purinoceptor 1 (P2RX1, Homo sapiens, UniProt P51575, K215A) | calcium influx |  | 316 nM | reference: ionomycin response | calcium influx | 100% and 99.3% and 87.2%
OC[C@H]1OC(O)[C@H](O)[C@@H](O)[C@@H]1O (some centres unmarked) | Hexokinase-3 (HK3, Homo sapiens, UniProt P52790, N221A) | substrate inhibition |  | mutant N221A, partial substrate inhibition model, added: ATP 20 mM |  | V∞/Vmax ratio (b) | 0.4 ± 0.01
NCCCC(=O)O | SLC6A6 (Homo sapiens, UniProt P31641, L306A) | binding, microscale thermophoresis |  | 244 nM, room temperature, added: 50 nM labelled protein | higher = more binding | normalised MST signal | -0.0714
COC(=O)c1cc(C(C)=NNc2nc(-c3ccc4c(c3)OCCCO4)cs2)ccc1O | PTPN1 (Homo sapiens, UniProt P18031) | enzyme activity, inhibitor, Lineweaver-Burk kinetics |  | 1.5 µM | reference: uninhibited control | Vmax decrease | 25%
CCC1(O)CCCN(C(=O)c2ccc(-c3ccc(F)c(NC(=O)CCl)c3)cc2)C1 (centres unmarked) | DNA dC->dU-editing enzyme APOBEC-3A (Homo sapiens, UniProt P31941) | covalent modifier, intact protein mass spectrometry, item: adduct +26691 Da |  | 125 µM, 1 h, 5-fold molar excess |  | protein adduct | 0%
Cc1cc(-c2ccnc3[nH]cc(F)c23)cc(F)c1[C@@]1(O)[C@H](C)CN(C(=O)CN)C[C@@H]1C | JAK1 (Homo sapiens, UniProt P23458) | ATP/ADP probe binding, KiNativ | HEK293T lysate | 0.1 µM, activation loop domain 2 |  | probe labelling inhibition | 9.4%
N#Cc1ccn2c(-c3ccncc3)c(-c3ccc(F)cc3)nc2c1 | Carbon catabolite-derepressing protein kinase (SNF1, Candida albicans, UniProt P52497) | kinase binding, competitor, MIB/MS competition, item: SNF1 | Candida albicans cell lysate | 10 µM | reference: DMSO | log2 fold change | 0.0847
CN1CCN(c2cc(-c3ccncc3)c(-c3ccc4ccccc4c3)nn2)CC1 | CCR1 (Homo sapiens, UniProt P32246) | agonist, FLIPR |  | 12.5 µM |  | activation | -1.4%
CCCC(CCC)c1nc2c(Nc3ccc(C#CCCCCCCCCN)cc3)nc3ccccc3c2[nH]1 | OPRK1 (Homo sapiens, UniProt P41145) | PDSP screening |  |  |  | off-target affinity | inactive
NC(N)=NCCC[C@H](N)C(=O)Nc1ccc2ccccc2c1 | Puromycin-sensitive aminopeptidase (Rattus norvegicus, UniProt F1M9V7) | substrate |  |  |  | Km | 3 µM
CC(=O)N[C@@H](CCCNC(=N)N)C(=O)N[C@@H](CCCNC(=N)N)C(=O)N[C@H]1CSSC[C@@H](C(=O)N[C@@H](CCCNC(=N)N)C(=O)N[C@@H](CCCNC(=N)N)C(N)=O)NC(=O)[C@H](C(C)C)NC(=O)[C@@H]2CCCN2C(=O)[C@H](CC(=O)O)NC(=O)[C@H](Cc2ccc(O)cc2)NC(=O)[C@H](CO)NC(=O)[C@H](CCC(C)C)NC(=O)[C@H](Cc2ccc(O)cc2)NC(=O)[C@H](CC(C)C)NC(=O)[C@@H]2CCCN2C1=O | KRAS G12D GDP-bound | affinity selection mass spectrometry |  | mixture library 1, added: protein titration up to 5 µM | lower is stronger binding | lowest bound protein concentration | 5 µM
CNC1CCC(N(Cc2cccc(-c3ccncc3)c2)C(=O)c2sc3ccccc3c2Cl)CC1 (centres unmarked) | Protein smoothened (SMO, Homo sapiens, UniProt Q99835) | GTPγS binding | CHO stably expressing human SMO | concentration not given |  | decrease of basal signal | 18 ± 2.6%
CCCCCC=O | uncharacterized protein | binding, competitor, fluorescence displacement |  | 20 µM, pH 7.4, added: 1-NPN 20 µM | reference: 1-NPN alone | relative fluorescence | 80.1%
O=c1nc(SCc2cc(F)cc(C(F)(F)F)c2)nc(SCc2ccc3sccc3c2)[nH]1 | TOP2A (Homo sapiens, UniProt P11388) | ATPase activity |  | 3.9 µM, added: ATP 0.25 mM |  | ATP hydrolysis rate | 1.38 µM/min and 1.3 µM/min
N[C@H](CNC(=O)c1cc(Br)c(-c2ccccc2F)s1)C(=O)O | Grin1 with GluN2D |  |  | added: glutamate 300 µM |  | Hill slope | 1.62
O=C(Nc1ccc2[nH]nc(-c3ccncc3)c2c1)[C@@H]1CCN(CC(=O)N2CCN(c3ccc(-c4ncccn4)cc3)CC2)C1 | MAPK1 (Homo sapiens, UniProt P28482) | kinase activity, Kinase-Glo |  | concentration not given |  | normalized luminescence | 1.25
OC[C@H]1O[C@@H](Oc2cc3c(O)cc(O)cc3[o+]c2-c2ccc(O)c(O)c2)[C@H](O)[C@@H](O)[C@@H]1O | ALB | binding, visible absorption |  | 50 µM, pH 7, added: HSA up to 200 µM | reference: without HSA | bathochromic shift | 58 nm
Nc1ncnc2c1ncn2[C@@H]1O[C@H](COP(=O)(O)OP(=O)(O)O)[C@@H](O)[C@H]1O | GUK1 | ITC |  | molar ratio 3.053 |  | ΔH | -0.176 kcal/mol
O=C(Nc1cnccc1Cl)N1CCN(Cc2ccc3c(c2)OC(F)(F)O3)CC1 | human off-target panel |  |  | 50 µM |  | number of off-targets hit | 7
c1ccc(Nc2nccc(-c3ccco3)n2)cc1 | ADORA2A (Homo sapiens, UniProt P29274) | binding, radioligand competition |  | 30 µM, added: [3H]ZM241385 |  | displacement | 37 ± 4%
CC[C@H](C)[C@@H]1NC(=O)[C@H](Cc2ccc(-c3ccccc3)cc2)NC(=O)[C@H](CC2CCCCC2)NC(=O)[C@@H]2[C@@H](c3ccccc3)CCN2C(=O)[C@@H](NC(=O)[C@H](CCCNC(=N)N)NC(=O)[C@H](CCCNC(=N)N)NC(C)=O)CSSC[C@@H](C(=O)N[C@@H](CCCNC(=N)N)C(=O)N[C@@H](CCCNC(=N)N)C(N)=O)NC(=O)[C@H](C(C)C)NC(=O)[C@@H]2CCCN2C(=O)[C@H](CC(=O)O)NC(=O)[C@H](Cc2ccc(O)cc2)NC(=O)[C@H](CO)NC1=O | KRAS G12D GDP-bound | affinity selection mass spectrometry |  | mixture library 3, added: protein titration up to 2.5 µM | lower is stronger binding | lowest bound protein concentration | 0.62 µM
